Experimental data of several laboratories.
Compare with care: the assays were run in different laboratories. Values joined by “and” are separate records of one study, mostly repeats; a detail may differ. ± marks the error that the study gave.
BCHE: Cholinesterase (BCHE, Homo sapiens, UniProt P06276)
Sequence of UniProt Q01959 (whole entry, looked up): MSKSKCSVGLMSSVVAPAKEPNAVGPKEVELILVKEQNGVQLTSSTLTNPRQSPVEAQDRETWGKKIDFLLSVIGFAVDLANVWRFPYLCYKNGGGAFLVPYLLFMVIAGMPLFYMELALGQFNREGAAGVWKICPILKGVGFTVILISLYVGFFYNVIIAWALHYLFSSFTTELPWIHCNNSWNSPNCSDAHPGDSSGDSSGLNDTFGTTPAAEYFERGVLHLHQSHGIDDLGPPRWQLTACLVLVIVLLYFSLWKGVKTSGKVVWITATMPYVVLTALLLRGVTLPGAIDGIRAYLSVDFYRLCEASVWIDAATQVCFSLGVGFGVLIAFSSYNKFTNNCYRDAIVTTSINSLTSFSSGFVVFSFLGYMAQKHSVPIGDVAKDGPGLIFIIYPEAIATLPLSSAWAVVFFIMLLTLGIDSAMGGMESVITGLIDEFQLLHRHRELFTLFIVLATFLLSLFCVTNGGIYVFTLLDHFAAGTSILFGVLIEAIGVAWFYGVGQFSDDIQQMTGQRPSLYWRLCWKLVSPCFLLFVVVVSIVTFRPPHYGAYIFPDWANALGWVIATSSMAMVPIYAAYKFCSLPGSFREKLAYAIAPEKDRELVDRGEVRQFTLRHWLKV
Sequence of UniProt P06276 (whole entry, looked up): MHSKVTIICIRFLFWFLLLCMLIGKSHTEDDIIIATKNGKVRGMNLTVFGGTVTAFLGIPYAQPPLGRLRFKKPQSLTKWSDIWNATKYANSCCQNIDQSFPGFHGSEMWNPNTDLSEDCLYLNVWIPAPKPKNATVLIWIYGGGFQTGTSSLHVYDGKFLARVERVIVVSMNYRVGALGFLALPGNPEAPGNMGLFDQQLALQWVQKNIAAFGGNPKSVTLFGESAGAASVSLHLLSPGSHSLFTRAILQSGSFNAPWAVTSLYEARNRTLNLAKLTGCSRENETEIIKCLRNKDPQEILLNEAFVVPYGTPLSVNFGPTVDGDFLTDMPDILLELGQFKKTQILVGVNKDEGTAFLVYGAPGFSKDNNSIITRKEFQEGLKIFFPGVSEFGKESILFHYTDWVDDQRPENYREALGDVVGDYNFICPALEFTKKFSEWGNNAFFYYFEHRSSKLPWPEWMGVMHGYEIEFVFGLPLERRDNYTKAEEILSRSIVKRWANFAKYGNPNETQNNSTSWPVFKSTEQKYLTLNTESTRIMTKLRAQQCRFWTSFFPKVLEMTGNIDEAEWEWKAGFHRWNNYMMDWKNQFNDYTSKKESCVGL
Sequence of UniProt O43614 (whole entry, unmodified, looked up): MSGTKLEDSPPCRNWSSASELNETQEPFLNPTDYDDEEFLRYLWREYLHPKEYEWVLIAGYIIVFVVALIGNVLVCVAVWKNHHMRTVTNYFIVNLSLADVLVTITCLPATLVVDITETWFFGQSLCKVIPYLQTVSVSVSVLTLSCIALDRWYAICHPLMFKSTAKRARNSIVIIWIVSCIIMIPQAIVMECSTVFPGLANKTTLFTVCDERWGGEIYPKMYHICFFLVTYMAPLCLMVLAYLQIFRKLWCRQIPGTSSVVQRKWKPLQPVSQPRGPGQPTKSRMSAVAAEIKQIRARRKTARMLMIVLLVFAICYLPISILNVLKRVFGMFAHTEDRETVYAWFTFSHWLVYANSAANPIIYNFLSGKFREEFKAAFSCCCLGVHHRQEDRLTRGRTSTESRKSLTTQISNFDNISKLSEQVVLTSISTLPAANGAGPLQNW
Sequence of UniProt O70528 (whole entry, looked up): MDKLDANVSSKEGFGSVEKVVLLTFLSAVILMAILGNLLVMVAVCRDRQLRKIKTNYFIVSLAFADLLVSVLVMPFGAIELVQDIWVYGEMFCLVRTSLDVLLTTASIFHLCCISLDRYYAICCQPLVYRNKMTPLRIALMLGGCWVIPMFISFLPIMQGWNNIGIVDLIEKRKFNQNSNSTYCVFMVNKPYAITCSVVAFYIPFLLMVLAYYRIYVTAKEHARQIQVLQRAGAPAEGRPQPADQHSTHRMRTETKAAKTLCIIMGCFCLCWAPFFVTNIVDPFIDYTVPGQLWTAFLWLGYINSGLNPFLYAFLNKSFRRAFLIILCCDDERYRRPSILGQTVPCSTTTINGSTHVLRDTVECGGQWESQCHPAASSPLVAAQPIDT
Sequence of UniProt P00747 (whole entry, looked up): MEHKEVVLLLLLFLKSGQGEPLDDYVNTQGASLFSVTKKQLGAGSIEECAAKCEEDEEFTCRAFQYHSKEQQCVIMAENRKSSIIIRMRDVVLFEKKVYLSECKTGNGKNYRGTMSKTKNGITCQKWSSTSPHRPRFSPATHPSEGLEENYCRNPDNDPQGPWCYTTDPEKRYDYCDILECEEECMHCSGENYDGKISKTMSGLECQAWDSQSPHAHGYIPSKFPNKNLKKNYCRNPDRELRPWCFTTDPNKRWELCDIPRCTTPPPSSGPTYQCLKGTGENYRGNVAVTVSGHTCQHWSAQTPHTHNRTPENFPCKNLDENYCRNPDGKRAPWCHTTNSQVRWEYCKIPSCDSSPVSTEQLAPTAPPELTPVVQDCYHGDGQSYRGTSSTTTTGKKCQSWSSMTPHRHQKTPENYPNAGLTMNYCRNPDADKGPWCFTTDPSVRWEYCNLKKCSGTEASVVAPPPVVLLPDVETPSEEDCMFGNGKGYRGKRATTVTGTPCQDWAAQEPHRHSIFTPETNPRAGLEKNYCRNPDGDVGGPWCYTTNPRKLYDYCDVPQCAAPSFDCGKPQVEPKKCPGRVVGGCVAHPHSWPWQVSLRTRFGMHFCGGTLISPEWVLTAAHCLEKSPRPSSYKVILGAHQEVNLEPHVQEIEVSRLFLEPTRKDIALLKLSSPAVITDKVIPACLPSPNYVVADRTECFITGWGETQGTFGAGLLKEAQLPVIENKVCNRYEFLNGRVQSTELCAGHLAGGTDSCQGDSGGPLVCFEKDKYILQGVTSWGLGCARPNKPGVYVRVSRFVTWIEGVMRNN
Sequence of UniProt O95347 (whole entry, looked up): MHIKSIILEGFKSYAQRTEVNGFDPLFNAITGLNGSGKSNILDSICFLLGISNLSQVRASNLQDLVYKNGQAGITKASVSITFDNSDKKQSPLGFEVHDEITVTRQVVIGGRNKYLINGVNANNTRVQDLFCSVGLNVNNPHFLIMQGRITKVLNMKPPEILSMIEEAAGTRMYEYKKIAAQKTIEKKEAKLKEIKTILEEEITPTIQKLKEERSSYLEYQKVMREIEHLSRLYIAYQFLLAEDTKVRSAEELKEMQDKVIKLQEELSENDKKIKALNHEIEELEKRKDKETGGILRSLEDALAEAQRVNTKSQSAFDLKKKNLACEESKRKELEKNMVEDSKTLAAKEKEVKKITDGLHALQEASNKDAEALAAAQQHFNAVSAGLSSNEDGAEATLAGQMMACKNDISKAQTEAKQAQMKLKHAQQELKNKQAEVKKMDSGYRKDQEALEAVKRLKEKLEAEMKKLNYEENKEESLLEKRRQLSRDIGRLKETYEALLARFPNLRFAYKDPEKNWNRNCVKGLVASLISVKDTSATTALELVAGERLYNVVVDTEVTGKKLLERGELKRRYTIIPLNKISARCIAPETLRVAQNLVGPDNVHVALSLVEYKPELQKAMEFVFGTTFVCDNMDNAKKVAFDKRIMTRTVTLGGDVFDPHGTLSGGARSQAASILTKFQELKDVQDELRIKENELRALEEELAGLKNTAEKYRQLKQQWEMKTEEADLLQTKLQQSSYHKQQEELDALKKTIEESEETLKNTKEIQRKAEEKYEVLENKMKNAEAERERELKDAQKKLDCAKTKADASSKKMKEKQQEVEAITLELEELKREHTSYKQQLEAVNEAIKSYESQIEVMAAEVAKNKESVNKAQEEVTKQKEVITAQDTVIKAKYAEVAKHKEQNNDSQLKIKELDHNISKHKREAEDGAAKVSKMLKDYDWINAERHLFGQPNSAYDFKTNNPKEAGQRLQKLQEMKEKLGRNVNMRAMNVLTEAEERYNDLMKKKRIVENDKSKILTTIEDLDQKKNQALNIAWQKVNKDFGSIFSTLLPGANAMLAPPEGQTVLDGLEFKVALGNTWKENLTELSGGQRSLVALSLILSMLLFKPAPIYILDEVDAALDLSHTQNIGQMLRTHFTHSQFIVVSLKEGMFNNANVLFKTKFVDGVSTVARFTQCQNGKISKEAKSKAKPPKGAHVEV
Sequence of UniProt P14416 (whole entry, looked up): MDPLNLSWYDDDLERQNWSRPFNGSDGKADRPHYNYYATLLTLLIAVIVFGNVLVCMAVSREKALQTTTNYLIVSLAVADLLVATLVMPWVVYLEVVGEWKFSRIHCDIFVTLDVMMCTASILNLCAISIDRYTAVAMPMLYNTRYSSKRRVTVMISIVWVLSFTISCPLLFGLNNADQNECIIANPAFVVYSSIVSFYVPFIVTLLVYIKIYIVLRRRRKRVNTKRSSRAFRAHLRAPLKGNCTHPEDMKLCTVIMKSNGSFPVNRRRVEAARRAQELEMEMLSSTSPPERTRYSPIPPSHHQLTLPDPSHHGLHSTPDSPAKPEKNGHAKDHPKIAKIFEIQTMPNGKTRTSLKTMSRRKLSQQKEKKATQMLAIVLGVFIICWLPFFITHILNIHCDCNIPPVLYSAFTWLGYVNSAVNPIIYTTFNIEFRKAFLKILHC
Sequence of UniProt Q92743 (whole entry, looked up): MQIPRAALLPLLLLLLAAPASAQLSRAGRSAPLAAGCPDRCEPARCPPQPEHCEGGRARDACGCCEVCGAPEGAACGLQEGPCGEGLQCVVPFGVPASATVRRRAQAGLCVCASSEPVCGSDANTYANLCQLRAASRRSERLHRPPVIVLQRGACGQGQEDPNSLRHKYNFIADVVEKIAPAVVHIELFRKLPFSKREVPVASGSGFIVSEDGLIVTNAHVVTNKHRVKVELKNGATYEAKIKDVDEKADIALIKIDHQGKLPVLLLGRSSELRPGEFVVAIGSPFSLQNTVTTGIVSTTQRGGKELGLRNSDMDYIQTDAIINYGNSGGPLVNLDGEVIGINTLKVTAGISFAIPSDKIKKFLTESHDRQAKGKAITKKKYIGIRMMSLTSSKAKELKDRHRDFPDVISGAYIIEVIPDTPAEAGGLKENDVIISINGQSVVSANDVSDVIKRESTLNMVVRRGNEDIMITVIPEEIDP

The IC50 of `COc1cc(Nc2ncc(F)c(Nc3ccc4c(n3)NC(=O)C(C)(C)O4)n2)cc(OC)c1OC` is reported as > 10 µM (Plasminogen (PLG, Homo sapiens, UniProt P00747)).
`C[C@]12CC[C@H](O)C[C@@H]1CC[C@@H]1[C@@H]2CC[C@]2(C)[C@@H]([N+](=O)[O-])CC[C@@H]12` — result for activity: “inactive” ([3H]flunitrazepam binding; rat cerebral cortex homogenate; concentration not given).
For `CC[C@H](C)[C@H](NC(=O)CNC(=O)[C@@H](N)CCCCN)C(=O)N[C@@H](CC(C)C)C(=O)N[C@@H](CCCCN)C(=O)N[C@@H](CCCNC(=N)N)C(=O)N[C@@H](CCC(=O)O)C(=O)N[C@@H](CCCCN)C(=O)N[C@@H](CCCNC(=N)N)C(=O)N[C@@H](CC(C)C)C(=O)N[C@@H](CCCNC(=N)N)C(=O)N[C@@H](CCCNC(=N)N)C(=O)N[C@@H](CCCCN)C(=O)N[C@@H](CC(N)=O)C(=O)N[C@H](C(=O)N[C@@H](Cc1c[nH]cn1)C(=O)N[C@@H](Cc1c[nH]c2ccccc12)C(=O)N1CCC[C@H]1C(=O)N[C@@H](CCC(=O)O)C(=O)N[C@@H](CCC(=O)O)C(=O)NCC(=O)N[C@@H](CCCCN)C(=O)N[C@@H](CC(C)C)C(=O)N[C@@H](CCCNC(=N)N)C(=O)N[C@@H](CCC(=O)O)C(=O)N[C@@H](Cc1ccc(O)cc1)C(=O)N[C@@H](Cc1ccccc1)C(=O)N[C@@H](Cc1ccc(O)cc1)C(=O)N[C@@H](Cc1ccccc1)C(=O)N[C@@H](CCC(=O)O)C(=O)N[C@@H](CC(C)C)C(=O)N[C@@H](CC(=O)O)C(=O)N[C@@H](CCC(=O)O)C(=O)N[C@@H](C)C(=O)N[C@@H](CCC(=O)O)C(=O)N[C@@H](CCCNC(=N)N)C(=O)N[C@H](C(=O)N[C@@H](CC(N)=O)C(=O)N[C@H](C(=O)O)C(C)C)C(C)C)C(C)C`, “log2 fold change” read 0.07 (HeLa and HEK-293T cells; phosphatase bead binding, competitive inhibitor, PIB pulldown iBAQ LC-MS/MS, measured: PPP6R1; concentration not given; baseline: untreated control).
`CC[C@H](NC(=O)[C@H](CS(=O)(=O)CC1CC1)N[C@@H](c1ccc(F)cc1)C(F)(F)F)C(=O)C(=O)NC1CC1` gave an efficacy of -79.3 ± 19.1% (BCHE; concentration not given, Triton).
Under “log2 fold change”, `Oc1ccc2c3c1O[C@H]1[C@@H](O)CC[C@@]4(O)[C@@H](C2)N(CC2CCC2)CC[C@]314` is recorded as 0.168 (Chemerin-like receptor 2 (CMKLR2, Homo sapiens, UniProt P46091); β-arrestin recruitment, TANGO luminescence, measured: GPR1; concentration not given; baseline: basal luminescence).
`CC(C)OC(=O)c1cc2c(OCC(O)CNC(C)(C)C)cccc2[nH]1` (stereo not drawn) has an efficacy of -99.9 ± 7.64% (BCHE; concentration not given, Triton).
The IC50 of `CCC(=O)N1CCN(C(=O)c2ccccc2)CC1` is reported as 3.98 µM (Plasmodium falciparum; W2).
Under “normalised fluorescence response”, `CNC(=O)[C@@H](c1ccccc1)N1CCc2cc(OC)c(OC)cc2[C@@H]1CCc1ccc(C(F)(F)F)cc1` is recorded as -0.519 and -2.17 and -2.14 and -0.661 (Orexin receptor type 2 (HCRTR2, Homo sapiens, UniProt O43614, del254-292/I293E/K294R/L160H/M161K/Q254E); fluorescence sensor response, fluorescence; concentration not given).
`Cl.Cl.Clc1ccccc1CNCC1CCC(CNCc2ccccc2Cl)CC1` (stereo not drawn) has an efficacy of -72.8 ± 15.4% (BCHE; inhibitor, fluorescence).
The inhibition of `O=C(Nc1cccnn1)N1CCC(=Cc2cccc(Oc3ccc(C(F)(F)F)cn3)c2)CC1` is reported as 85% (glycine transporter, rat; binding; 50 µM, added: [3H]glycine).
For `C=CCN1CC[C@]23c4c5ccc(O)c4O[C@H]2C(=O)CC[C@]3(O)[C@H]1C5`, the inhibition was -3.9% (Cysteinyl leukotriene receptor 1 (CYSLTR1, Homo sapiens, UniProt Q9Y271); concentration not given).
`CC[C@H]1CN2CC[C@H]1C[C@H]2[C@H](O)c1ccnc2ccc(OC)cc12` gave an efficacy of -90.6 ± 15.3% (BCHE; inhibitor).
`O=C(c1ccc(Cl)cc1)N1CCN2C(=O)N(OC(=O)N3CCOc4ccccc43)C(=O)C2C1` (stereo not drawn): “median protein ratio” 1.15 (Serine protease HTRA1 (Homo sapiens, UniProt Q92743); MS-based ABPP; SW-620 conditioned medium; 10 µM, 1 h, 37 °C; baseline: compound over DMSO, lower = more inhibition).
For `CC(N)C(=O)OC(C)(C)Cc1ccc(Cl)cc1` (stereo not drawn), the IC50 was 1.26 µM (Plasmodium falciparum; GB4).
With `CN(C(=O)n1cnc(-c2ccc[n+]([O-])c2)c1)C1CCCCC1` the inhibition was 23% (5-hydroxytryptamine receptor 4 (HTR4, Cavia porcellus, UniProt O70528); radioligand binding; 50 µM, added: [3H]GR-113808).
For `c1ccc2cc([C@]34CNC[C@H]3C4)ccc2c1`, the dopamine uptake was 77.4% and 93.7% and 125% (Sodium-dependent dopamine transporter (SLC6A3, Homo sapiens, UniProt Q01959); inhibitor, [3H]dopamine uptake; 10 nM; baseline: no inhibitor).
For `CN[C@@]1(c2ccccc2Cl)CCCCC1=O`, the inhibition was 9% (D(2) dopamine receptor, short isoform (DRD2, Homo sapiens, UniProt P14416); radioligand binding, agonist, radioligand displacement; 30 µM).
For `CN1CCN(c2cc(-c3ccncc3)c(-c3ccc4ccccc4c3)nn2)CC1`, the inhibition was 26.3% (Muscarinic acetylcholine receptor M4 (CHRM4, Homo sapiens, UniProt P08173); antagonist, FLIPR; 10 µM).
`COc1cc(O)ccc1OCCNCC(O)COc1cccc2[nH]c3ccccc3c12` (stereo not drawn) gave an efficacy of -104 ± 16% (BCHE; concentration not given, Triton).
The inhibition of `COc1ccc(N2C(=O)N(c3c(C)cccc3Cl)Cc3cnc(Nc4ccc(C5CCN(C)CC5)cc4OC)nc32)nc1` is reported as 12% (Serine/threonine-protein kinase ULK1 (ULK1, Homo sapiens, UniProt O75385); kinase activity; 0.5 µM).
The efficacy of `O=C(O)CCC(=O)O.c1ccc(C2(c3ccccc3)CC2C2=NCCN2)cc1` (stereo not drawn) is reported as -101 ± 19.6% (BCHE; concentration not given, Triton).
`O=C(Nc1cnccc1Cl)N1CCN(Cc2ccc3c(c2)OC(F)(F)O3)CC1` gave an inhibition of 7% (Prostaglandin E2 receptor EP4 subtype (PTGER4, Homo sapiens, UniProt P35408); binding, measured: EP4; 50 µM, human, added: [3H]prostaglandin E2).
With `CCCN(CCc1ccsc1)C1CCc2c(O)cccc2C1.Cl` (stereo not drawn) the efficacy was -73.4 ± 5.86% (BCHE; concentration not given, Triton).
With `C[C@H]1CN(c2n[nH]c3nc(N[C@H]4CC[C@H](NS(=O)(=O)CCC(F)(F)F)CC4)ncc23)CCO1` the remaining binding was 1.19 (Structural maintenance of chromosomes protein 2 (Homo sapiens, UniProt O95347); Kinobeads competition, measured: SMC2; 0.8 µM, unit not given; baseline: vehicle).

A few entries again:
`CC[C@H](NC(=O)[C@H](CS(=O)(=O)CC1CC1)N[C@@H](c1ccc(F)cc1)C(F)(F)F)C(=O)C(=O)NC1CC1` gave an efficacy of -79.3 ± 19.1% (BCHE; concentration not given, Triton).
For `C=CCN1CC[C@]23c4c5ccc(O)c4O[C@H]2C(=O)CC[C@]3(O)[C@H]1C5`, the inhibition was -3.9% (Cysteinyl leukotriene receptor 1 (CYSLTR1, Homo sapiens, UniProt Q9Y271); concentration not given).
